Measured values collected from several papers.
Numbered parts are unrelated; each lists some results of a single study. Positions count from the first letter of the parent shown.

Series 1
Target: RNA binding protein fox-1 homolog 2, RRM domain, GST-SBP tag (RBFOX2, Homo sapiens, UniProt O43251-10, residues 100-194)
Technique: RNA Bind-n-Seq
Molecule type: RNA
Sample: in vitro
Concentration: 365 nM
Setting: natural RNA segment, single round, ends assumed
Baseline: no-protein control
Reading: higher = stronger binding
All sequences stand within: GGGAGUUCUACAGUCCGACGAUC … UGGAAUUCUCGGGUGCCAA
Target sequence (chain): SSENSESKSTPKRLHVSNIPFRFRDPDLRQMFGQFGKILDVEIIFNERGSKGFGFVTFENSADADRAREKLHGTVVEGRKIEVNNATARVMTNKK
Oligonucleotide | RBNS enrichment (R)
UCAAUAUCUGUUUUCUCUGGAGAGUCCACCAGUGACCCAAGCUCUCCCUGCCAGCCUCCUGUGUCAAACCAGGUCCCUUCUCAGUACUGUAUUGGCUCAGUGCUUUCAGG | 0.281
UCUAAAUAAAACUUCCCCUAGCACUGUGGCUGACCUCACCCUUACUUUUAUACUUUAGUAUGAAACUGAUGAGAACUUUGGUAGUGAGUAUUUUUUUUAUAUAUAUACAU | 0.591
UGGCCAGCCCCGCCCACUGCCAGGGACGCCGAGGGCCUGACCAGGGGCCCCGAGGCCUGAGGGCCCCUCCCCUGUCCCCACCUCAGUGCCUGCGGGGCCCUGAGCCUCCC | 0.502
AGAGAGGCAAGUCAAGGGAAAGAGAACAGUAGACAUGCCUCUCAUCAUUCUCUUGGUGUCUCUUUUUCUUCUUCAGGCCAAUGAGAAGCCGAAAAUUAAACCCCACCUCC | 0.81
UCUUUAGGCAGCUCUGCCUUAACCCAGGUUUCGUGUAAGAAACUUAACCUUCUCCCUUCCUACCAAUUUUUGUGUGAUCUUUUAGAAAAUAAAUAUUUCUGACAUUAAUG | 0.464
AAGUUAUAAGUCAGAUUUAAUUAGCAUCAGAGUUGAUUUUAUAUUAGUCAGAUUUUGGAUCAUCACAGAGAUCUCCACAACUCCUUGGCUUAAACAGCUCCACCGGUAAA | 0.42
AACUGGACUGUGAGUCUCUUGGUUCAGUAUUAGGUUCACUUUAUUUAUACUGUAAGUUAUUUUACUUCCCCUGGGACCCUUUCCAGUCCUCGUUUUACAUUCAUUCCUCU | 0.65
AAGGACUCACAUACAGUGCCUGGAGAAAGCCAAAGACCUUUAUUUCUUCCUGCCUCCCCGUGGGAAGCCUCCGCCCUGAGGUCCGCUGGCCCACCACCCCUGGGUGCUCA | 0.267
GCUCGACCAAGCCGAAUUGCAAACAACGUUCGUUCUAUUUUUAAAUGUACAGGUUCGAUCGUUUCUAUAGAAAUGGGUUUAUCUAAGAAAAGUCUUGGUUUGUCUUGCUG | 0.603
GUGACUGCAGCGCCAAGCGGCAUCCACCAAGCAUCAAGUUGGAGAAAAGGGAACCCAAGCAGUAGAGAGCGAUAUUGGAGUCUUUUGUUCAUUCAAAUCUUGGAUUUUUU | 0.507
UGCUUAAGACUAAGUCCAGUGUUUUUCAUUUUCCCUUUGGCUGAAUAUUUCAAUUGACAAACCAGCAGGACAUAUGAAAAAUGCUUCAGUGAUGUGGUCCAUUAUAAGAU | 0.379
CGUUGCCAGAGCUGGAAGUUUCCACAGGCUGCUGGAGCUAGACAACAAUUCAGACAGAAAGGGAAAGUCCCUGAGGCAAAGUCUCUCUAGCCAGAGACCUAUGCAUCCCG | 0.331

Series 2
Target: RING finger protein unkempt homolog, zinc fingers 1-6, GST-SBP tag (UNK, Homo sapiens, UniProt Q9C0B0, residues 30-357)
Technique: RNA Bind-n-Seq
Molecule type: RNA
Sample: in vitro
Concentration: not given
Setting: RNA with constant flanks, ends assumed
Baseline: input RNA pool
Reading: higher = stronger binding
All sequences stand within: GGGAGUUCUACAGUCCGACGAUC … CAACAGAGGAUUGAGCAUCA
Residues (chain): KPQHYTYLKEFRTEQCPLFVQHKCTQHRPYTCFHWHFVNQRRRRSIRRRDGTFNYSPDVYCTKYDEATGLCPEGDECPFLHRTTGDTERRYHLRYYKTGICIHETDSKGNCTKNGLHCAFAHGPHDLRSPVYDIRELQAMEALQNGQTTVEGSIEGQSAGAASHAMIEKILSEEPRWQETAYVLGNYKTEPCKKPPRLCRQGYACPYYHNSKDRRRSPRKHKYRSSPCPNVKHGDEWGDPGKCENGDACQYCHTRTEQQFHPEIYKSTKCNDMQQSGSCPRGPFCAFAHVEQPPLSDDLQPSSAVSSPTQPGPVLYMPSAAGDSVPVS
Oligonucleotide | bound/input enrichment [ratio]
CUCCCUCAACCAAUAUAUAGACACAUAGCAUCUUUCCUGUCAGUCUUCAAACUAGUAUUAACCGGCUUAAUAAUUGUUGGCAAGGAUCCUUUUGCUUUCUUUGGCAUGCAAGCUCCUAGC | 49.7
UUUCAUGCCCGGCCUUUGUUCCCCCCGUCCAUGUGUCCUUUAGUUUCAAACAGAUCUUUACCGUUUGUGCUUCAUAAGCCAAUUCUUAUUAUGAUUUUGGGGGACUGUUCUUCAAAGAGC | 0.447
UUGACUCUCCUCUUUACAGAGCUAGCAAAAGUAAUAGAGAGCUCUGCAAAGGGUUUCCCCCGUUUUAUCUCUGAUAUGCUGUCUAAGUGCAAAGUUCAGAAAGUGAUUCUUCAUUGUUUG | 0.136
UGGCUUCAGGAUGUAGAGGGCCUGCAGGCUGGAGGACGUGUGCCAGUGUUAGACACACUCACCGAACUUGUUACACGAGGCCGAUCUAUCCCCGUACAUCUGAAUUCUUUGCCAAGACUG | 0.113
ACUGAGCCAUUUCCUAUUUUAAAUGGCUUCUACAGUAAAUUAACAACUCAGUUAUUAAACCCGCAGGAUCCUACAAUGAUACAUCUAGUGAAAGUAGAGUUAAUUAACUUAUUUCUAUUU | 0.853
UCCCUAAAGAUAAUUGGAAGACUUCAUUGGAUUGAUAGAGAGAAACUGCGUAAUUUCAUUUCCGCAUGUCAAGAUGAAGAAACGGGGGGAUUUGCAGACAGGCCAGGAGAUAUGGUGGAU | 0.587
AACAAUGAAACCAACAACAAACAUUUUUAAAAUUAAAAUGGAUAAUUUGUAAAUAGUUUUCCGCUUUUAAAAUUUAAAGUGUUUUUGAGUGUGAAAAGUUGAGUAAAACUAUUUGCAACU | 0.28
AAACAAGCCUUUGAAAGAUGUCAUAGGCUUUCUGAUCCUUCUGAUUUACCAAGGAAUGCCUUCCGAAUUUUUACCAUUCUUGUGGAAUUUUUAUGUAUUGAGCAUAUUGAUUAUGCUUUA | 0.075
GAUGGACUACAUUUGUCUCCAAAGGGGAAUGAAUUUUUGUUCUCGCAUCUCUGGCCUUUGACCGAGAAAAAGGUCUCUUCUCUACCUUUGCUGCUUCCUUACUGGCGGGAUGUAGCAGAA | 0.147
AUGUCCUUUCCUGUGGAUAGUGUUGACAUAGGAUUCAGGAAUCAGGUUGAUGACAUCCGCCGCUUUUUGGAUUCCAGACAUCUUGACCACUACACAGUAUACAACUUGUCACCCAAGUCU | 0.162
UGUGGUGGAGAAGGUAUCUCAUUCCUCUCUAACAUCAUCUCCACUUUGCAUCUGUCUCUCUCCGUCUGCUUUUUUUCCACCGAUGUAACAGACCUGGAGCCAGCAGGACUCAGAGGAAAG | 0.219

Series 3
Target: CCNA2, cyclin fold, Cln2 fusion (human)
Technique: yeast growth competition, sequencing
Sample: yeast
Setting: strong parent motif
Baseline: not given
Reading: higher = stronger binding
Starting sequence: BRCA2 docking peptide (human); PSIKRNLLNEFDR
Substitution | normalised enrichment score
LSIKRNLLNEFDR [P1L] | 5.8
PSIKRNALNEFDR [L7A] | 0.524
PSFKRNLLNEFDR [I3F] | 5.76
PSIKRNLLCEFDR [N9C] | 4.49
PSIKRNLLNEFNR [D12N] | 6.42
YSIKRNLLNEFDR [P1Y] | 6
PSAKRNLLNEFDR [I3A] | 7.32
PSKKRNLLNEFDR [I3K] | 2.28
PSIKRHLLNEFDR [N6H] | 1.44
PSIKRNLLNEFQR [D12Q] | 5.05
PSIKRNHLNEFDR [L7H] | -0.289
PSIKRNLGNEFDR [L8G] | 1.7
PSIKRNLLNEVDR [F11V] | 1.99
PSLKRNLLNEFDR [I3L] | 4.67
PSIKRCLLNEFDR [N6C] | 4.8
PSIKRNLLNEQDR [F11Q] | 0.461
PSIKRNLLPEFDR [N9P] | 5.7

Series 4
Target: Histone acetyltransferase KAT6A, both winged helices, GST fusion (KAT6A, Homo sapiens, UniProt Q92794, residues 1-181)
Technique: protein binding microarray
Molecule type: double-stranded DNA, one strand shown
Sample: in vitro
Concentration: not given
Setting: 8-mer, flanks averaged, mean of 2 arrays, mostly near background
Baseline: not given
Reading: higher = stronger binding
Residues (chain): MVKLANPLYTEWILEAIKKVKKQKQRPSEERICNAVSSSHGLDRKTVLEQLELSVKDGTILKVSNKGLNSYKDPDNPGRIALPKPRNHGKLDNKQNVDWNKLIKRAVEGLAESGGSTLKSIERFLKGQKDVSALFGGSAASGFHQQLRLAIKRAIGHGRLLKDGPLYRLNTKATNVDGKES
Oligonucleotide | E-score
AGCAGTTG | -0.194
AGAAGAAA | -0.118
CAACCCAA | -0.245
GCGGAGCA | 0.0935
ACGCCGGA | 0.0853
GACGTTTA | 0.107
CGCTTGGC | 0.123
AGAATGCG | 0.12
CTTGTGGC | -0.16
CAGGGCAA | -0.133
CCGATTAA | 0.0579
ATGATTCC | 0.114
CACCGTGA | 0.118
GGGGCCAC | -0.212
CCTCATCG | -0.0765
CAGCTGCA | -0.0433

Series 5
Target: Fragile X messenger ribonucleoprotein 1, C-terminal low-complexity region (Fmr1, Mus musculus, UniProt P35922)
Technique: RNA Bind-n-Seq
Molecule type: RNA
Sample: in vitro
Concentration: 200 nM
Setting: whole 134-nt RNA, ends assumed
Added: 150 mM LiCl
Baseline: input library
Reading: higher = stronger binding
Library: 7-deaza-guanosine replaces G
All sequences stand within: GGGAGUUCUACAGUCCGACGAUC … UGGAAUUCUCGGGUGUCAAGG
Oligonucleotide | log2 enrichment
GCAGGAAGUAAAAACAGAUGGAAAUGCUUCGGAUAGUGGCAGGGGUGGGGGUUGCUAAGGAAAGGGUGGGAUGGGAGUGGGUAAAGAGUU | 1.25
CUCAAGUCCUGUGCUACACAUCGUAUGUACCGAAUCGGGCCGGCCGGCCGGGGAAAGUAUUAUGUUACGCCGUUCGGAUCUGCACUUCCA | 0.968
GUCCUGUGCUACACAUCGUAUGUACCGAAUCGGUUUUUGGAAAAAAAGGUUUUUUUGGAAAGUAUUAUGUUACGCCGUUCGGAUCUGCAC | -2.77
AGGUCAUGGAUCAAAAAGAACAUAAAUUGAAUGGGAAGGUGAUUGAUCCUAAAAGGGCCAAAGCCAUGAAAACAAAAGAGCCGGUUAAAA | -0.551
UAACUUUAGAGGAGGAUCUGAUGGAUAUGUCAGUGGACGUGGAUUUGGGGAUGGCUAUAAUGGGUAUGGAGGAGGACCUGGAGGUGGCAA | 0.418
AGUCCUGUGCUACACAUCGUAUGUACCGAAUCAAACCCCCCCAAAUUUAAACCCAAAAAAGUAUUAUGUUACGCCGUUCGGAUCUGCACU | 1.02
UUUCUAGGGAAGGUGCUUCUGGAAAAGUUGCUGAGGUCUUGUCCUAAGGUGAAUUCAGUAUAUGUUUUGGUGAGGCAGAAAGCUGGACAG | -2.62
GUCCUGUGCUACACAUCGUAUGUACCGAAUCGGGAAAAAGGAAAAAGGGAAAAAGGGGAAAGUAUUAUGUUACGCCGUUCGGAUCUGCAC | 0.295
UCCUCAAGUCCUGUGCUACACAUCGUAUGUACCGAAUCGGAAAGGAGGAGGAAAGUAUUAUGUUACGCCGUUCGGAUCUGCACUUCCAGC | -2.27
UGGGAGGUGGAUUUUGUUUAUUUUUUUAGCUCAUUUCCAGGGGUGGGAAUUUUUUUUUAAUAUGUGUCAUGAAUAAAGUUGUUGUUGAAA | 0.285
UGGCCCUGGUGGCAUGCGGGGAGCAAGAGGUGGCCUCAUGGAUCGUGGUGGUCCCGGUGGAAUGUUCAGAGGUGGCCGUGGUGGAGACAG | 0.174

Repeated from above (series 4):
Oligonucleotide | E-score
CGCTTGGC | 0.123
AGAATGCG | 0.12
CTTGTGGC | -0.16
CAGGGCAA | -0.133
CCGATTAA | 0.0579
